Published values collected from several papers.
A part holds a random share of what one study measured. “And” joins repeats or separate records; there may be more than shown.

Series 1 — cell line: Gaucher fibroblasts L444P/L444P; technique: 4-MUG hydrolysis, cell lysate; concentration: 0.1 µM; relative to: DMSO; measurement: GCase activity
Ic1ccc(Nc2nc(NCCN3CCOCC3)nc(NC3CCCCC3)n2)cc1: 102% and 94.2% and 96.7% and 108%
Ic1ccc(Nc2nc(NCCN3CCCCC3)nc(N3CCOCC3)n2)cc1: 96.6% and 99.6% and 107% and 97.9% and 103% and 97.6%
CCN(CC)c1nc(NCCN2CCOCC2)nc(Nc2ccc(I)cc2)n1: 93% and 100% and 84.8% and 104% and 96.6%
Ic1ccc(Nc2nc(NCCN3CCOCC3)nc(N3CCSCC3)n2)cc1: 93.1% and 112% and 106% and 92% and 118%
Ic1ccc(Nc2nc(NCCN3CCOCC3)nc(N3CC4CC3CO4)n2)cc1 (stereo not drawn): 112% and 97.7% and 99.7% and 101% and 93.2% and 104%
Ic1cccc(Nc2nc(NCCN3CCOCC3)nc(N3CCOCC3)n2)c1: 100% and 98.8% and 104% and 105% and 96.5% and 95.5%
Fc1ccc(Nc2nc(NCCN3CCOCC3)nc(N3CCOCC3)n2)cc1: 99.7% and 97.3% and 95% and 95.9% and 98.2% and 102%
Cc1ccc(Nc2nc(NCCN3CCOCC3)nc(N3CCOCC3)n2)cc1: 97.8% and 112% and 99.2% and 108% and 95.9% and 94.1%

Series 2 — effect on: thermal unfolding; technique: differential scanning fluorimetry; concentration: 5.5 µM; reading: higher = more unfolded; measurement: SYPRO Orange fluorescence
SMILES: C[C@@H]1CN(c2ccc(-c3cc(C(=O)NCCOCCOCCOCCOCCNC(=O)Cn4cc(-c5[nH]cc(C(=O)N[C@@H](CC(N)=O)c6ccc(F)c(Cl)c6)c5-c5ccc(Cl)cc5F)cn4)ccc3F)cc2NC(=O)c2c[nH]c(=O)cc2C(F)(F)F)C[C@H](C)N1C
DCAF1: DDB1- and CUL4-associated factor 1 (DCAF1, Homo sapiens, UniProt Q9Y4B6)
Chain of UniProt Q9Y4B6 (whole entry, looked up): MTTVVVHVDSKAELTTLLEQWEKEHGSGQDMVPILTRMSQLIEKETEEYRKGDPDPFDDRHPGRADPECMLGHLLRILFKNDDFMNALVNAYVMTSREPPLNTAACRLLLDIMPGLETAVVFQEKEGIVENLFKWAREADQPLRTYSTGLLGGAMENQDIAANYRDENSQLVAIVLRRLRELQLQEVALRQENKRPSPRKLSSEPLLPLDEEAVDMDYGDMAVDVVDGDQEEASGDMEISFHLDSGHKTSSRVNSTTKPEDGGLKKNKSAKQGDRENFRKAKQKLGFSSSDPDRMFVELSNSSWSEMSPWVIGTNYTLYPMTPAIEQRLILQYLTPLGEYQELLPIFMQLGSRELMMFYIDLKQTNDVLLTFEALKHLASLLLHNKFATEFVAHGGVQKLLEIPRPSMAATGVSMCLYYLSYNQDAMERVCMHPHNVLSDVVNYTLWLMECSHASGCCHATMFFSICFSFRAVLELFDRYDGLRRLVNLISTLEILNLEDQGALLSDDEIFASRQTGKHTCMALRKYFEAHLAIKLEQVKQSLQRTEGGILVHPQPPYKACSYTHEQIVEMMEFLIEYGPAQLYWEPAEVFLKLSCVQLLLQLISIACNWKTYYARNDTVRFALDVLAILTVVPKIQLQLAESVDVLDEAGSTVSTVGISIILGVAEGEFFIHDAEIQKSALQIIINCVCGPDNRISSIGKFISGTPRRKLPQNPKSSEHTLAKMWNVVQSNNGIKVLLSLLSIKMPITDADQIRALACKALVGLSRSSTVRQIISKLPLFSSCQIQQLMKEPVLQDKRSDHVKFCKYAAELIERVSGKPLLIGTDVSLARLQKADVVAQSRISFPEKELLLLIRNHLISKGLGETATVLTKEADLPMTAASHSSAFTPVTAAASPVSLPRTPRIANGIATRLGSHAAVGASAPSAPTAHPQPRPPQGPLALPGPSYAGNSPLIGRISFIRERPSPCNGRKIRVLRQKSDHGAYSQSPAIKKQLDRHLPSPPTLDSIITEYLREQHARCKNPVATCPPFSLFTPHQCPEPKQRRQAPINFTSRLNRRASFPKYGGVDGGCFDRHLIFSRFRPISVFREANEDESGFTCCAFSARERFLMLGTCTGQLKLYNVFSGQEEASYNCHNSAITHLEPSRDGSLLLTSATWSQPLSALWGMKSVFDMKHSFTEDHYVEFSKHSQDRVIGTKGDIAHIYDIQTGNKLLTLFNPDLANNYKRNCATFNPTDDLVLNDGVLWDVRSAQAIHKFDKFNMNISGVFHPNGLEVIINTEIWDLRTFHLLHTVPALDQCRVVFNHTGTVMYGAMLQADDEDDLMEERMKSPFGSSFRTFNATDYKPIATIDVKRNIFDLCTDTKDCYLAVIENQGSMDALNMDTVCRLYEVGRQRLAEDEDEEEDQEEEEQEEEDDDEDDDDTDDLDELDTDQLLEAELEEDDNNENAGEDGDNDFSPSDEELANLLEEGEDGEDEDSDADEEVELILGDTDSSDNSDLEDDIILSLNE
WDR5: WD repeat-containing protein 5 (WDR5, Homo sapiens, UniProt P61964)
DCAF1; 62.81 °C: 50800 a.u.
DCAF1; 65.01 °C: 55900 a.u.
WDR5; 26.2 °C: 14700 a.u.
WDR5; 58.61 °C: 11300 a.u.
DCAF1; 38.2 °C: 9710 a.u.
DCAF1; 46.2 °C: 12800 a.u.
DCAF1; 74.81 °C: 49500 a.u.
WDR5; 51 °C: 14400 a.u.

Mixed results
Cn1cc(-c2cccc(CN3CCC4(CC3)COc3c4ccc4c3CN([C@H]3CCC(=O)NC3=O)C4=O)c2)cn1 — time to tumour volume 2000 mm3 (Crbn I391V mouse, MC-38 tumour; oral, daily, 30 mg/kg, animals reaching endpoint, together with: vehicle i.p.): 36 days and 33 days and 39 days and 25 days and 22 days and 20 days
C=CCN1C(=O)C(O)(C(=O)O)Oc2cc(F)ccc21 (stereo not drawn) — inhibition (Arabidopsis thaliana; hypocotyl length; Col-0, seedlings; 50 µg/mL): 26.1%
